Published values collected from several papers.
Protocols differ between the studies behind these lines.
DRD4: D(4) dopamine receptor (DRD4, Homo sapiens, UniProt P21917)
Chain of UniProt P21917 (whole entry, unmodified, looked up): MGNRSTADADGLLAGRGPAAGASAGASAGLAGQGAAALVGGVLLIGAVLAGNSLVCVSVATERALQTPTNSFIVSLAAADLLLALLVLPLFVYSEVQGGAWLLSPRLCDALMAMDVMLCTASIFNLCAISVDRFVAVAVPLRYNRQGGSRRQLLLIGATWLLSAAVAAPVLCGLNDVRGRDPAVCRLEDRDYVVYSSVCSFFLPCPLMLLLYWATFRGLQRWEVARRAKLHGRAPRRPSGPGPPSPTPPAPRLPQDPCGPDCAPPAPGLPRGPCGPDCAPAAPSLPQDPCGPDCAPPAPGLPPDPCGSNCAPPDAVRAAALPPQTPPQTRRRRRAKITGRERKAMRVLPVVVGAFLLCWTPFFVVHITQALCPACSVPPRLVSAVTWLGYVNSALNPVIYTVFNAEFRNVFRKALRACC
DRD4 del265-296: D(4) dopamine receptor (DRD4, Homo sapiens, UniProt P21917, del265-296)

Compound | target | observed | technique | tested at | together with | inhibition
O=C(CN1CCO[C@@H](COc2cccc(Cl)c2)C1)N1CCc2ccccc21 | DRD4 | radioligand binding | – | concentration not given | [3H]N-methylspiperone | 96.6%
Cc1[nH]nc2c1N=C(c1ccccc1Cl)c1cnc(N3CCOCC3)cc1N2 | DRD4 del265-296 | cell-free assay | – | 10 µM | – | -6%
CC1Cc2ccccc2N1C(=O)CN1CCN(c2ccccc2)CC1 (centres unmarked) | DRD4 | radioligand binding | – | concentration not given | [3H]N-methylspiperone | 6.9%
Brc1ccccc1-c1nnc(CSc2nnnn2-c2ccccc2)o1 | DRD4 | ligand displacement | radioligand | 10 µM | – | -42%
Cn1ccc2cc(-n3c(=O)[nH]c4sc5c(c4c3=O)CCCC5)ccc21 | DRD4 | cell-free assay | radioligand | 10 µM | – | 2%
Fc1cccc(OCC2CN(Cc3cn4ccccc4n3)CCC2(F)F)n1 (centres unmarked) | DRD4 | ligand displacement | radioligand | 10 µM | – | 41%
Cc1ccnc(OC[C@H]2CN(CCN3CCc4ccccc43)CCO2)c1 | DRD4 | radioligand binding | – | concentration not given | [3H]N-methylspiperone | 81.1%
COc1ccc(CN2CC(COc3cccc(F)n3)CC(F)(F)C2)cc1F (centres unmarked) | DRD4 | ligand displacement | radioligand | 10 µM | – | 13%
COc1ccc(C(=O)Nc2c(-c3cccs3)nc3ccccn23)cc1 | DRD4 | ligand displacement | radioligand | 10 µM | – | < 50%
FC1(F)CCN(Cc2ncc3ccccn23)CC1COc1cccc(Cl)n1 (centres unmarked) | DRD4 | ligand displacement | radioligand | 10 µM | – | 11%
COCC(=O)N1CCc2cc(-c3csc(NC(=O)c4cc(OC)cc(OC)c4)n3)ccc21 | DRD4 del265-296 | cell-free assay | – | 10 µM | – | -6%

For quick reference, copied from above:
Compound | target | observed | technique | tested at | together with | inhibition
Cc1[nH]nc2c1N=C(c1ccccc1Cl)c1cnc(N3CCOCC3)cc1N2 | DRD4 del265-296 | cell-free assay | – | 10 µM | – | -6%
CC1Cc2ccccc2N1C(=O)CN1CCN(c2ccccc2)CC1 (centres unmarked) | DRD4 | radioligand binding | – | concentration not given | [3H]N-methylspiperone | 6.9%
